# Published values pooled from the literature.
# Each numbered part is a random draw from the data of one study; scales do not carry over between parts.

# Sample 1
# Target: RING finger protein unkempt homolog, zinc fingers 1-6, GST-SBP tag (UNK, Homo sapiens, UniProt Q9C0B0, residues 30-357)
# UniProt Q9C0B0, sequence (30-357, looked up): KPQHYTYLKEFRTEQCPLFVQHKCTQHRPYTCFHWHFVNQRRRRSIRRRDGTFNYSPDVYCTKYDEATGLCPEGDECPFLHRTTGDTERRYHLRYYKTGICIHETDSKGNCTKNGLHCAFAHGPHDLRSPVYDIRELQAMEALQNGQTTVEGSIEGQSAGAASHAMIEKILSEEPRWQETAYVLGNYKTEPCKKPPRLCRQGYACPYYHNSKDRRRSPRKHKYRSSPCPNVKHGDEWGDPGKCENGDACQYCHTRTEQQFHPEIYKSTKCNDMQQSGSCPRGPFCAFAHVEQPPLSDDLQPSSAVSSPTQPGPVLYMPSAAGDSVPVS
# Technique: RNA Bind-n-Seq
# Form: RNA
# Matrix: in vitro
# Tested at: not given
# Notes: RNA with constant flanks, human and mouse sites, ends assumed
# Relative to: input RNA pool
# Direction: higher = stronger binding
# All sequences stand within: GGGAGUUCUACAGUCCGACGAUC … CAACAGAGGAUUGAGCAUCA
Oligonucleotide,bound/input enrichment [ratio]
UGUCUGUUACACAGCUUUGACAGAGCUUUCUUAGGAAACAUGAUUAAAAAAAAACACUCCCAACUUCAAAAAUGUAUCAGGUGAAGAGGCAUGGGCAGAAUUGUGUCUUUUCUGGUCUGA,0.397
CUGCUCACGCAAUACGAGCGCGAGAAGGCGCUGCGCAAACAGGCCGAGGAGAAAUUCAUCGAAUUUGAAGAUGCCUUGGAACAAGAGAAGAAAGAACUCCAGAUCCAGGUAGAACAUUAU,0.189
UCUCCUAGUAGUGAUCUCACACUUUCAAGUGUUCUCUGGGAUAGAGAGAGAUCAAGCUUUUAUAGCCUGACGAGUUCAAACAUCAGUAAAUGGGAAUUAGAUGAUUCUUCAGAAAAGCAU,1.06
GAAGAUAAGCUGGAAUGUUCUGAAGAACUGGGUGAUCUCGUUAAAUCUGUGGACCCAACAUUAGCACUGAGUGUUUACCUCAGGGCCAAUGUACCUAAUAAAGUCAUCCAGUGCUUUGCA,0.119
AUGAAGGCUCGUUUAAAGGGAGCACAGACAGGUCGAAACCUCCUGAAGAAAAAAUCUGAUGCCUUAACUCUUCGAUUUCGACAGAUCCUAAAGAAGAUAAUAGAGACUAAAAUGUUGAUG,0.335
GCUGCAUGUCUCCAAACUCUUCAACCAUCCCAAUAUCGUGCCAUAUCGAGCCACUUUUAUUGCAGACAAUGAGCUGUGGGUUGUCACAUCAUUCAUGGCAUACGGUUCUGCAAAAGAUCU,0.185

# Sample 2
# Target: Histone acetyltransferase KAT6A, winged helix 2, GST fusion (KAT6A, Homo sapiens, UniProt Q92794, residues 85-181)
# Technique: protein binding microarray
# Form: double-stranded DNA, one strand shown
# Matrix: in vitro
# Tested at: not given
# Notes: 8-mer, flanks averaged, mean of 2 arrays, mostly near background
# Relative to: not given
# Direction: higher = stronger binding
# Construct (chain): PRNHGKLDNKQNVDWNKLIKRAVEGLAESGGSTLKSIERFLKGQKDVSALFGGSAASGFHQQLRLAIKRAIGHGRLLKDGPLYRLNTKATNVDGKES
Oligonucleotide,E-score
CTACATGC,0.0383
AGCCTCGG,0.0766
GAGCGACA,0.025
GCGCGCGA,0.218

# Sample 3
# Target: Sal-like protein 4, full length isoform A (SALL4, Homo sapiens, UniProt Q9UJQ4, residues 1-1053)
# UniProt Q9UJQ4, sequence (whole entry, looked up): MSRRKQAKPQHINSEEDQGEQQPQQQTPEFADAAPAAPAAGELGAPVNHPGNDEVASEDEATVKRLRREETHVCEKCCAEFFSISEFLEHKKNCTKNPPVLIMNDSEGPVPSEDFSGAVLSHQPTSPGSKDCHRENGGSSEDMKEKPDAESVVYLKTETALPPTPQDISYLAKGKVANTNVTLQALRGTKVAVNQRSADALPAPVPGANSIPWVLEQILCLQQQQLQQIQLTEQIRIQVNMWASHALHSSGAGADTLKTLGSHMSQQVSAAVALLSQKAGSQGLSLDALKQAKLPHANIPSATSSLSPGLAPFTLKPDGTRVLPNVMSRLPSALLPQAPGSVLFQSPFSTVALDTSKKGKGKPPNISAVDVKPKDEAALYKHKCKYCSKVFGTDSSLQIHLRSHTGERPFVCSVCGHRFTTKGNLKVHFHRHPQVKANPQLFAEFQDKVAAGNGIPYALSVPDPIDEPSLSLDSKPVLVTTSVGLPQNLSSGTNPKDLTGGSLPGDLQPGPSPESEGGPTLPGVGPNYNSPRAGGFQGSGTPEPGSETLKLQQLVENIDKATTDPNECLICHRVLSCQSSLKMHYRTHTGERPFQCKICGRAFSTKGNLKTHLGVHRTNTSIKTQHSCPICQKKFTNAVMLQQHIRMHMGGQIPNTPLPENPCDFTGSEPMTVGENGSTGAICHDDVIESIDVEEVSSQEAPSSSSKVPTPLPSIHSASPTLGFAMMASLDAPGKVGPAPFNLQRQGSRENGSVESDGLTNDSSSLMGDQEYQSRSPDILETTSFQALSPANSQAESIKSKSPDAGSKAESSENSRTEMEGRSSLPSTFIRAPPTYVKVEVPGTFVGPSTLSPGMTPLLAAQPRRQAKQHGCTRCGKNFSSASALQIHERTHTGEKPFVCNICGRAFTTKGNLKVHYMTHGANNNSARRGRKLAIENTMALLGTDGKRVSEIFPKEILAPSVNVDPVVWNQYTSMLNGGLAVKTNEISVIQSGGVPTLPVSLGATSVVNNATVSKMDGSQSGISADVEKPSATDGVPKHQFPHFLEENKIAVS
# Technique: universal PBM
# Form: double-stranded DNA, one strand shown
# Matrix: in vitro
# Tested at: 600 nM
# Notes: 8-mer, flanks averaged, mean of replicates
# Direction: higher = stronger binding
Oligonucleotide,E-score
AACCAGGG,-0.168
ATCGCGTA,-0.0196
ATGGCTGC,-0.108
CAGGTTTC,-0.127
AGCCCGGA,-0.365
GCCTGCGC,-0.323
ATACAGAC,0.14

# Mixed results
Substance,target,assay,test system,setting,how to read,endpoint,result
"PhoQ, residues 284 288 289 292 302 303 NLMGRA","PhoP, residues 12 14 15 18 19 NHFRA (Escherichia coli, UniProt P23836)","Sort-seq, item: YFP reporter",E. coli,"PhoQ-PhoP variant library, with: 10 µM Mg2+","relative to: high Mg2+ state, higher = stronger signaling",fold induction,3.42

# For quick reference, copied from above (sample 3):
Oligonucleotide,E-score
CAGGTTTC,-0.127
AGCCCGGA,-0.365
